Measurements gathered from unrelated publications.

SMILES	tested on	assay	system	setting	scale	measurement	value
CC(O)Cn1cnc2c1c(=O)n(C)c(=O)n2C (stereo not drawn)	human iPSC-derived cardiomyocytes	MyBP-C/MYH ratio, plate-normalised SD score		concentration not given, primary screen	direction not given	activity score	3.2
CN(C(=O)n1cnc(-c2ccc[n+]([O-])c2)c1)C1CCCCC1		item: OEA	human, plasma	10 mg once daily, day 10		AUC(0-tau)	261 ng·h/mL
COc1ccc(CC2c3cc(OC)c(OC)cc3CC[N+]2(C)CCC(=O)OCCCCCOC(=O)CC[N+]2(C)CCc3cc(OC)c(OC)cc3C2Cc2ccc(OC)c(OC)c2)cc1OC (stereo not drawn)	human iPSC-derived cardiomyocytes	MyBP-C/MYH ratio, plate-normalised SD score		concentration not given, primary screen	direction not given	activity score	3.8
CC(Nc1nc(N2CCCC2)nc2ccccc12)c1ccccc1 (stereo not drawn)	transportin-1/2	FUS nuclear import, high content imaging	HeLa Kyoto reporter	0.05 µM, 2 h		cells with nuclear reporter	92.9%
COc1cnc2cccc(N3CCc4c(cc(Cn5ccnc5C)cc4-c4cn(C)nc4C(F)(F)F)C3=O)c2c1	SNU-182	cell growth, inhibitor		120 h		EC50	> 30 µM
COC(=O)[C@H](Cc1c[nH]c2ccccc12)NCc1cc2ccccc2nc1OC	Pseudomonas aeruginosa			16 µg/mL, without pentamidine	relative to: control	growth	93.7%
C[C@H]1C[C@H]2CSC(N)=N[C@@]2(c2nc(NC(=O)c3ccc(OC(F)F)cn3)cs2)CO1		item: total Aβ	healthy adults, plasma	160 mg single dose, 4 h post-dose	relative to: placebo	percent change from baseline	-45.8%
COc1cccc(OC)c1C(=O)N[C@@H]1C(=O)N2[C@@H]1SC(C)(C)[C@@H]2C(=O)O	human iPSC-derived cardiomyocytes	MyBP-C/MYH ratio, plate-normalised SD score		concentration not given, primary screen	direction not given	activity score	-3.6
OC(CCN1CCCCC1)(c1ccccc1)C1CC2C=CC1C2 (stereo not drawn)		resting-state EEG	healthy elderly humans	oral, 4 mg, eyes closed, LS mean	relative to: baseline	change, theta power, EEG O1-Pz	-37.7%
N#Cc1ccc2c(c1)[C@H]1CCCN(C(=O)c3ccc4[nH]cnc4c3)[C@H]1C2		item: FPG	human	80 mg once daily, day 28, adjusted mean	relative to: placebo	change from baseline	7.2 mg/dL
CCn1cc(-c2cc(Cn3ccnc3)cc3c2CCN([C@H](c2cc(OC)ccn2)C2CC2)C3=O)c(C(F)(F)F)n1	LS-411N	cell growth, inhibitor		120 h		EC50	> 30 µM
Oc1ccccc1-c1n[nH]cc1-c1ccnc2ccccc12	SHA3 (Candida albicans)	kinase binding, MIB/MS competition	Candida albicans lysate	1 µM	relative to: DMSO	log2 fold change	-0.02
COc1cc(NC(C)CCCN)c2ncccc2c1 (stereo not drawn)	human iPSC-derived cardiomyocytes	MyBP-C/MYH ratio, plate-normalised SD score		concentration not given, primary screen	direction not given	activity score	7.4
Cn1cc(-c2ccc(-c3cncc(Cl)c3N3CCC4(CCNC4=O)CC3)cc2)cn1	COLO 205	gene expression, microarray, item: POU2AF1 (BOB1) mRNA		concentration not given, 2 h	relative to: untreated cells	log2 fold change	-2.86
C1CCC(C(CC2CCCCN2)C2CCCCC2)CC1 (stereo not drawn)	human iPSC-derived cardiomyocytes	MyBP-C/MYH ratio, plate-normalised SD score		concentration not given, primary screen	direction not given	activity score	5.4
O=C(O)CNC(=O)Cc1ccccc1			ventricular cardiomyocytes, C57BL/6 mouse	dose not given, 0.212 s		sarcomere length	1.62 µm
C[C@@H]1O[C@@H](OC[C@H]2O[C@@H](Oc3c(-c4ccc(O)c(O)c4)oc4cc(O)cc(O)c4c3=O)[C@H](O)[C@@H](O)[C@@H]2O)[C@H](O)[C@H](O)[C@H]1O	human iPSC-derived cardiomyocytes	MyBP-C/MYH ratio, plate-normalised SD score		concentration not given, primary screen	direction not given	activity score	3.3
CCn1cc(-c2cc(Cn3ccoc3=N)cc3c2CCN([C@@H](C)c2cc(OC)ccn2)C3=O)c(C(F)(F)F)n1	COLO 320	cell growth, inhibitor		120 h		EC50	3.14 µM

Excerpt of the above:
SMILES	tested on	assay	system	setting	scale	measurement	value
C[C@H]1C[C@H]2CSC(N)=N[C@@]2(c2nc(NC(=O)c3ccc(OC(F)F)cn3)cs2)CO1		item: total Aβ	healthy adults, plasma	160 mg single dose, 4 h post-dose	relative to: placebo	percent change from baseline	-45.8%
